Measured values gathered from unrelated publications.
Protocols differ between the studies behind these lines.

C[C@@H](Nc1cc(F)cc(F)c1)c1cc(C(=O)N(C)C)cc2c(=O)cc(N3CCOCC3)oc12  patients discontinuing for AE (refers to: Pyrexia; advanced solid tumour patients; oral, dose not given, dose finding): 1.6%
CNC(=O)c1cc(Oc2ccc(NC(=O)Nc3cc(C(C)(C)C)nn3-c3ccc4ncccc4c3)c(F)c2)ccn1  patients with grade 1 musculoskeletal disorders (patients; oral, dose not given, cycles 1 and 2, High AUC subgroup): 22%
COc1ccc([C@@H](O)c2cc(-c3ncnc4cc(N5CCOCC5)ccc34)c(F)cc2Cl)nn1  patients with drug-related AE (refers to: general and administration site disorders; locally advanced rectal cancer patients; 100 mg, with: capecitabine plus radiotherapy): 67%
C=CC(=O)NC1CCN(c2ncc3ncnc(Nc4ccc(Oc5ccc6c(c5)ncn6C)c(C)c4)c3n2)CC1  patients with Constipation (male patients; oral, dose not given, treatment-related adverse events): 0%
COc1cc(Nc2ncc3c(n2)-c2ccc(Cl)cc2C(c2c(F)cccc2OC)=NC3)ccc1C(=O)O  patients with adverse event (refers to: Tracheitis, all grades; cancer patients, phase 1/2; oral, dose not given, with: pembrolizumab): 4%
CCOc1c([C@H](C)n2nc(C)c3c(N)ncnc32)cc(Cl)c(F)c1[C@@H]1CNC(=O)C1  patients (refers to: QRS >100 to ≤110 ms; previously treated B-cell malignancy; oral, 45 mg once daily, baseline below thresholds): 0%
Cc1cc(-c2nnc(N)nc2-c2ccc(F)cc2)cc(Cl)n1  patients with immune-mediated AE (refers to: Hypothyroidism; IO-naive mCRPC patients, male; oral, dose not given, treatment-related, grade ≥3): 0%
CNC(=O)c1ccc(-c2cnc3ncc(Cc4ccc5ncccc5c4)n3n2)cc1F  patients with adverse event (refers to: Dyspepsia, all grades; cancer patients; oral, 600 mg twice daily, expansion cohort, any causality): 11%
Cc1cc(NC2CCN(C(=O)OC3CCN(C(=O)/C=C/CN(C)C)C3)CC2)n2ncc(C(C)C)c2n1 (stereo not shown)  patients with Anemia (patients with advanced solid tumours; dose not given, QD arm, any grade): 30%
O=C(Nc1nc2cccc(-c3ccc(CN4CCS(=O)(=O)CC4)cc3)n2n1)C1CC1  patients with Vertigo (rheumatoid arthritis patients; oral, 100 mg twice daily, 4 weeks, TEAE regardless of relatedness): 8.3%

A few entries again:
O=C(Nc1nc2cccc(-c3ccc(CN4CCS(=O)(=O)CC4)cc3)n2n1)C1CC1  patients with Vertigo (rheumatoid arthritis patients; oral, 100 mg twice daily, 4 weeks, TEAE regardless of relatedness): 8.3%
